Experimental data of several laboratories.
A part holds a random share of what one study measured.

Sample 1
Target: Histone acetyltransferase KAT6A, both winged helices, GST fusion (KAT6A, Homo sapiens, UniProt Q92794, residues 1-181)
Technique: protein binding microarray
Form: double-stranded DNA, one strand shown
Sample: in vitro
Tested at: not given
Notes: 8-mer, flanks averaged, mean of 2 arrays, mostly near background
Relative to: not given
Direction: higher = stronger binding
Target sequence (chain): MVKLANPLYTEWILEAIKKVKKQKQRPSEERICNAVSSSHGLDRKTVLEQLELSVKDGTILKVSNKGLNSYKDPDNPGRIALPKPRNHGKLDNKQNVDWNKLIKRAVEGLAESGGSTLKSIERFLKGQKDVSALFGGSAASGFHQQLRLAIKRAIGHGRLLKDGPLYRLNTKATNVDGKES
With `ATAAACGC` the E-score was 0.149.
With `GAGCAAGC` the E-score was -0.0169.
The E-score of `AGCCTCAA` is reported as -0.163.
`CGCCCGGC` has an E-score of 0.308.
With `CACAAGTA` the E-score was -0.166.
`GCGTTCCA` has an E-score of 0.0665.
The E-score of `GTACTCTA` is reported as -0.05.
With `AGGAGCCT` the E-score was -0.00807.
For `GCGACAAA`, the E-score was 0.0626.
`ACCTAGGG` has an E-score of -0.105.
The E-score of `GGATCCCC` is reported as 0.0527.
For `AAACATTG`, the E-score was -0.0343.
The E-score of `GGACAGGA` is reported as -0.0726.
`GCCTATTA` gave an E-score of 0.0264.
The E-score of `AAGATTAT` is reported as -0.106.

Sample 2
Target: Interferon regulatory factor 5, full length, phosphomimetic (IRF5, Homo sapiens, UniProt Q13568-2, residues 1-514, K96S/S451D/S453D/S456D/S462D)
Technique: protein-binding microarray
Form: double-stranded DNA, one strand shown
Sample: in vitro
Tested at: 250 nM
Notes: 60-bp whole probe
With: salmon DNA 0.4 mg/ml
Relative to: random background probes
Direction: higher = stronger binding
All sequences stand within: GCCTAGCAC … GTCTTGATTCGCTTGACGCTGCTG
For `TCACCTTTCTCCATGGGACTGTGCTAG`, the log fluorescence was 0.741 z-score.
`TCGTATGTGACCTTTTTAAGAGTGCTA` gave a log fluorescence of 0.382 z-score.
With `TTAGGACTGGACCATCGGTTAGTGCTA` the log fluorescence was -0.259 z-score.
With `AGTGAATTAGGTTTCACTTTGTGCTAG` the log fluorescence was 4.37 z-score.
`GACGATTTCACTTTCGAGACGTGCTAG` has a log fluorescence of 8.55 z-score.
`TTAGATTCAAGTTTCGATTAGTGCTAG` gave a log fluorescence of 8.76 z-score.
`GACGGTATCGTGTATCGGGACGTGCTA` gave a log fluorescence of 1.33 z-score.
`TCATTATGCTCTTTCTAACTGTGCTAG` has a log fluorescence of 1.03 z-score.
`TTCGGTATCCTTCTCCTTTAGTGCTAG` has a log fluorescence of 1.38 z-score.
The log fluorescence of `TACGGTTTCGGTATCGGGACGTGCTAG` is reported as 9.66 z-score.
For `GACGGACTGGGTTTGGGGACGTGCTAG`, the log fluorescence was -0.631 z-score.
`CTTGTTCTTAGCTTGGGTCTGTGCTAG` gave a log fluorescence of 0.0457 z-score.
The log fluorescence of `TTAGGTCTCGGGTATCGGTTAGTGCTA` is reported as 3.4 z-score.
`GACGGAATGGGTATCGGGACGTGCTAG` gave a log fluorescence of 0.608 z-score.
`GACGGACTGGGGACTGGGGAGGTGCTA` has a log fluorescence of -0.235 z-score.
`TTAGGACTGGGTTTCGGTCAGTGCTAG` gave a log fluorescence of 7.57 z-score.

Sample 3
Target: Sal-like protein 4, full length isoform B (SALL4, Homo sapiens, UniProt Q9UJQ4-2, residues 1-616)
Technique: universal PBM
Form: double-stranded DNA, one strand shown
Sample: in vitro
Tested at: not given
Notes: 8-mer, flanks averaged, mean of replicates
Direction: higher = stronger binding
For `ATTCGTCA`, the E-score was 0.0186.
The E-score of `AACGTTGT` is reported as 0.176.
`GATCTTCA` gave an E-score of 0.0661.
`CTTCACAA` gave an E-score of 0.0449.
The E-score of `CATCATGG` is reported as -0.167.
The E-score of `GGACCGCC` is reported as -0.332.
`TCGTAACA` has an E-score of 0.172.
With `ACGAGCCT` the E-score was -0.148.
`CACTTGTC` gave an E-score of -0.0653.
`ATCTAGAA` gave an E-score of 0.15.
With `CACAGTTC` the E-score was -0.0657.
For `AGCATTAT`, the E-score was 0.346.
The E-score of `AAGAAGAC` is reported as 0.0653.

Mixed results
`PhoQ, residues 284 288 289 292 302 303 TVTVVA` gave a fold induction of 0.892 (PhoP, residues 12 14 15 18 19 TPLRH (Escherichia coli, UniProt P23836); Sort-seq, item: YFP reporter; E. coli; PhoQ-PhoP variant library, with: 10 µM Mg2+; relative to: high Mg2+ state, higher = stronger signaling).

For quick reference, copied from above (sample 3):
`TCGTAACA` has an E-score of 0.172.
`GATCTTCA` gave an E-score of 0.0661.
For `AGCATTAT`, the E-score was 0.346.
With `CACAGTTC` the E-score was -0.0657.
`CACTTGTC` gave an E-score of -0.0653.
